{"data": "Results from different studies", "organism": "Staphylococcus epidermidis", "note": "± marks the error that the study gave."}
{"Structure (SMILES)": "CCc1cc(=O)c2c(OCC(O)CN3CCC(C)CC3)c3ccoc3c(OC)c2o1 (centres unmarked)", "test": "broth microdilution", "system": "ATCC 12228", "conditions": "19 h, 35 °C", "endpoint": "MIC", "value": "> 256 µg/mL"}
{"Structure (SMILES)": "CN[C@H](CC(C)C)C(=O)N[C@H]1C(=O)N[C@@H](CC(N)=O)C(=O)N[C@H]2C(=O)N[C@H]3C(=O)N[C@H](C(=O)N[C@H](C(=O)O)c4cc(O)cc(O)c4-c4cc3ccc4O)[C@H](O)c3ccc(c(Cl)c3)Oc3cc2cc(c3O[C@@H]2O[C@H](CO)[C@@H](O)[C@H](O)[C@H]2O[C@H]2C[C@](C)(N)[C@H](O)[C@H](C)O2)Oc2ccc(cc2Cl)[C@H]1O", "test": "E-test", "conditions": "24 h", "endpoint": "MIC", "value": "4 µg/mL"}
{"Structure (SMILES)": "CCc1cc(=O)c2c(OCC(O)CN3CCCCC3)c3ccoc3c(OC)c2o1 (centres unmarked)", "test": "broth microdilution", "system": "ATCC 35984", "conditions": "19 h, 35 °C", "endpoint": "MIC", "value": "> 256 µg/mL"}
{"Structure (SMILES)": "O=C(O)CCN1C(=O)C(=C2C(=O)N(Cc3ccc(F)cc3)c3ccccc32)SC1=S", "test": "microbial growth", "system": "ATCC12228", "conditions": "6 h", "endpoint": "IC50", "value": "9.46 µM"}
{"Structure (SMILES)": "Cc1cc(C)n(C(N)=S)n1", "test": "broth microdilution, agar subculture", "system": "ATCC 12228", "conditions": "24 h", "endpoint": "MBC", "value": "> 1000 µg/mL"}
{"Structure (SMILES)": "O=C(O)CN1C(=O)C(=C2C(=O)N(Cc3ccc(Cl)cc3)c3ccccc32)SC1=S", "test": "microbial growth", "system": "ATCC12228", "conditions": "6 h", "endpoint": "IC50", "value": "3.84 µM"}
{"Structure (SMILES)": "Cc1cc(O)n(C(N)=S)n1", "test": "broth microdilution, agar subculture", "system": "ATCC 12228", "conditions": "24 h", "endpoint": "MBC", "value": "250 µg/mL"}
{"Structure (SMILES)": "CCOC(=O)c1c(N)csc1-c1cn(-c2ccccc2)nc1-c1ccc(C)cc1", "test": "broth microdilution", "system": "clinical urinary isolate", "conditions": "compound gamma-irradiated 20 kGy", "endpoint": "MIC", "value": "0.123 ± 0.5 µg/mL"}
{"note": "Excerpt of the above:"}
{"Structure (SMILES)": "O=C(O)CCN1C(=O)C(=C2C(=O)N(Cc3ccc(F)cc3)c3ccccc32)SC1=S", "test": "microbial growth", "system": "ATCC12228", "conditions": "6 h", "endpoint": "IC50", "value": "9.46 µM"}
